Measurements collected from several papers.
Lines come from different studies, so protocols differ. “And” joins repeats or separate records; there may be more than shown. Numbers after ± are the reported error.
Chain of UniProt O76090 (whole entry, unmodified, looked up): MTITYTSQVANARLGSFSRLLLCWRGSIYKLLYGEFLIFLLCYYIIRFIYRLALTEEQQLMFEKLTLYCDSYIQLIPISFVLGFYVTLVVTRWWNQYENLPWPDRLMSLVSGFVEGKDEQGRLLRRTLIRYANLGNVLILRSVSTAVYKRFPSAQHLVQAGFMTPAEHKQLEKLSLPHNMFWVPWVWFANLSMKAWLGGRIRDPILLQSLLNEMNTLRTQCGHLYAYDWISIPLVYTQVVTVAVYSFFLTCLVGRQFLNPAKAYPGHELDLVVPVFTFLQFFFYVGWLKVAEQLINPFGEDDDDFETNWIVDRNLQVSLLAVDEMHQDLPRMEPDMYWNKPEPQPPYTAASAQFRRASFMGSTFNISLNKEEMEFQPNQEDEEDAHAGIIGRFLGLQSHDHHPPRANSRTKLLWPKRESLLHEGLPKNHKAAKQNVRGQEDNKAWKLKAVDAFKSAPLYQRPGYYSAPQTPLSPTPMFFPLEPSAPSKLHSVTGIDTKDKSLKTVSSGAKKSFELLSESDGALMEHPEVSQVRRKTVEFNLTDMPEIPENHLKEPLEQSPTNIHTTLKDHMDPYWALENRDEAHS
Chain of UniProt P08546 (whole entry, looked up): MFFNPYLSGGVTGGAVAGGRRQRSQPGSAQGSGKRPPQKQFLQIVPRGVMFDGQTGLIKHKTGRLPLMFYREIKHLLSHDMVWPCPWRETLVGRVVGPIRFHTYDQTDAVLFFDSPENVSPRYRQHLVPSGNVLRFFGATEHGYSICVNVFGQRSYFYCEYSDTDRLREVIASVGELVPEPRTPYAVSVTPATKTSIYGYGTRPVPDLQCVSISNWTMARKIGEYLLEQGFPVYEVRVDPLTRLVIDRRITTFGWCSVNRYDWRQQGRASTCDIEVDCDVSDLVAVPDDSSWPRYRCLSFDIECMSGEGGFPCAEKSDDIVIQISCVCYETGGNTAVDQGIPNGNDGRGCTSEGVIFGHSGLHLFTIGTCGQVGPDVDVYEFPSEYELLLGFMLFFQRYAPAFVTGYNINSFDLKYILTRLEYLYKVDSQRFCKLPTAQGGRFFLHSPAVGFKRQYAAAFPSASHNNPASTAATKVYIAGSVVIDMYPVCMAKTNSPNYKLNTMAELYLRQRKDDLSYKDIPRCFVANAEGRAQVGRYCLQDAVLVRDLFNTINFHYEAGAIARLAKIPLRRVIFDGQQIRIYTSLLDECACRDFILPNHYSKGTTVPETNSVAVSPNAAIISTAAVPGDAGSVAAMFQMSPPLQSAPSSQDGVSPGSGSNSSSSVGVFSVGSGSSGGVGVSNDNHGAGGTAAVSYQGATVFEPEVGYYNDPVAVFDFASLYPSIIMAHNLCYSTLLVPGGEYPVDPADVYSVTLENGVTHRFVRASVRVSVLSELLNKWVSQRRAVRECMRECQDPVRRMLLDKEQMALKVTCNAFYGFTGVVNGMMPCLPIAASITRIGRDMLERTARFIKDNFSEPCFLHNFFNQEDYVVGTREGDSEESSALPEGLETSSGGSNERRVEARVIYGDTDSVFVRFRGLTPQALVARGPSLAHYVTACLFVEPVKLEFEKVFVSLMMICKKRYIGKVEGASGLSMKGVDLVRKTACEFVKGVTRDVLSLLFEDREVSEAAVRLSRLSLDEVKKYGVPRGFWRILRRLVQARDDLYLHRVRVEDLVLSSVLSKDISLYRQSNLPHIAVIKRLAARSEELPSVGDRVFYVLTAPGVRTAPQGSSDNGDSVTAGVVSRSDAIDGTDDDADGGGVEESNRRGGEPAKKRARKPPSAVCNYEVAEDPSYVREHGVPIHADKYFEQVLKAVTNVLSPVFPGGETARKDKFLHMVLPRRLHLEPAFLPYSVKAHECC
Chain of UniProt Q13258 (whole entry, unmodified, looked up): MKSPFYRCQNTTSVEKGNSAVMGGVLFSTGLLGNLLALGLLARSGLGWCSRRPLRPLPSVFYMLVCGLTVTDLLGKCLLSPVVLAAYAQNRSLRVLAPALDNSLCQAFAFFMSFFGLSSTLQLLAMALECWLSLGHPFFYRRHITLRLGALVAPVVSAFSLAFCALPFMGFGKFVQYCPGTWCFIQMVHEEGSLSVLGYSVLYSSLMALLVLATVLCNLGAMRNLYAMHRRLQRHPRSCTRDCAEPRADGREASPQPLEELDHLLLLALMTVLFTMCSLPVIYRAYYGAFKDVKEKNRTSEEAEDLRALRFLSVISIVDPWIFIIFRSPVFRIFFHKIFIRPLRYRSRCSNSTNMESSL
Chain of UniProt P11388 (whole entry, looked up): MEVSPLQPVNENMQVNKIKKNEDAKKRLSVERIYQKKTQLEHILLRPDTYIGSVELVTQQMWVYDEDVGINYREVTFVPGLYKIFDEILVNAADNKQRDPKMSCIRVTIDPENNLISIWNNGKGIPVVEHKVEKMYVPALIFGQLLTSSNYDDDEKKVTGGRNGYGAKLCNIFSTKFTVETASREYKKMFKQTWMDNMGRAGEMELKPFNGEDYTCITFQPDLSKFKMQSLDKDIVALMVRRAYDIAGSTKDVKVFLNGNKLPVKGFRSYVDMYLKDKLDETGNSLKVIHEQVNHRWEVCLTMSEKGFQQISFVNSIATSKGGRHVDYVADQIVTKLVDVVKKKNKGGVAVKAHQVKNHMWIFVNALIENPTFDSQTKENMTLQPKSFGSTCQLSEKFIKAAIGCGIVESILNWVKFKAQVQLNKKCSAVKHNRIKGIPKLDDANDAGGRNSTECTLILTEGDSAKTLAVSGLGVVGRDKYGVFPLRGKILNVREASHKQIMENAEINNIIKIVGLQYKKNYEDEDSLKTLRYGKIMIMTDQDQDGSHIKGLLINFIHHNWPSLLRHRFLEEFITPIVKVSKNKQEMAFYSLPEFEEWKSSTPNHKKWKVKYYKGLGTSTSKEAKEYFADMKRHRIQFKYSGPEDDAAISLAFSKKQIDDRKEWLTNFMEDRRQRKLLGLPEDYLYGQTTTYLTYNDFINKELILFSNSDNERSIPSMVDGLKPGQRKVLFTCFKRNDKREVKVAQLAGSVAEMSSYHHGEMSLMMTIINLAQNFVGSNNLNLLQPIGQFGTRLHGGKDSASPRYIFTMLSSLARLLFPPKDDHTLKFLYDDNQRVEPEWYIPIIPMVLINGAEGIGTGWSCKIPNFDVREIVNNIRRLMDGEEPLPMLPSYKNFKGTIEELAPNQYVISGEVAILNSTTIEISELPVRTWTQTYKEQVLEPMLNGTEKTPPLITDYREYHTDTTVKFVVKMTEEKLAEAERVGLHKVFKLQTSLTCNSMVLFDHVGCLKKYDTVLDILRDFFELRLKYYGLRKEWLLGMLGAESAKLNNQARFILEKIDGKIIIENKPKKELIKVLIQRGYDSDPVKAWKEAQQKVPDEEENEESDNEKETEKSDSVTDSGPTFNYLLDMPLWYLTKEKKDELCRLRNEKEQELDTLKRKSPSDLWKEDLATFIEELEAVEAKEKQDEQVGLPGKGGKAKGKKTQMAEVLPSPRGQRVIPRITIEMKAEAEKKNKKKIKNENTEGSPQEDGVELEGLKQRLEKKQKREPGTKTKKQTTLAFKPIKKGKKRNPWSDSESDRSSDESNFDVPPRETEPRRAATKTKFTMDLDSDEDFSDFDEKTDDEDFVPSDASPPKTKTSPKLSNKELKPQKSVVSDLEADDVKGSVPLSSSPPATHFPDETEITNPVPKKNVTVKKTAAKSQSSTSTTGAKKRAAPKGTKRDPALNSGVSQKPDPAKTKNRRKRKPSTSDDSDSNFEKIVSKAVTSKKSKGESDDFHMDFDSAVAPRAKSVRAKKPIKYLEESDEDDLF
Chain of UniProt Q9X6J6 (whole entry, unmodified, looked up): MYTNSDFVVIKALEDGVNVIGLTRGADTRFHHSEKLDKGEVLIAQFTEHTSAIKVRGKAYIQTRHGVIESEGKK
Chain of UniProt Q9QXD6 (whole entry, looked up): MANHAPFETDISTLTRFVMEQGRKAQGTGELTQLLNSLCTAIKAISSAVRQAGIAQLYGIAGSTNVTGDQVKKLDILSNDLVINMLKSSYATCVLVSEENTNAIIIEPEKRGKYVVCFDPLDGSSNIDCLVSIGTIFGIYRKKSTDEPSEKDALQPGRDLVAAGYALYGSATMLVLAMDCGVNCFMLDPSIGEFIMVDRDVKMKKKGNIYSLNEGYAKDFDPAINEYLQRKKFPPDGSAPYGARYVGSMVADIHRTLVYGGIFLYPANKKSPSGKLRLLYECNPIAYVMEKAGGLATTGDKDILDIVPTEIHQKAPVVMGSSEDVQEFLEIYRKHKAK
Chain of UniProt P28482 (whole entry, looked up): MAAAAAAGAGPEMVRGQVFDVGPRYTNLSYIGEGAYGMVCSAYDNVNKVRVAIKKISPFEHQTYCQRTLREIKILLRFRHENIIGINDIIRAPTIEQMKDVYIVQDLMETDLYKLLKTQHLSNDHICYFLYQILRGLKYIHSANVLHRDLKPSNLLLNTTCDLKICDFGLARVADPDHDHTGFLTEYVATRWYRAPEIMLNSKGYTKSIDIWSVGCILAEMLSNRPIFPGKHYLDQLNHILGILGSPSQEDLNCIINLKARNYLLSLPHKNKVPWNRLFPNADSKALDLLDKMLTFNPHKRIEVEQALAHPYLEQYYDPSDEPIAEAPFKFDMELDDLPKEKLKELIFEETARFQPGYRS
Chain of UniProt P32246 (whole entry, looked up): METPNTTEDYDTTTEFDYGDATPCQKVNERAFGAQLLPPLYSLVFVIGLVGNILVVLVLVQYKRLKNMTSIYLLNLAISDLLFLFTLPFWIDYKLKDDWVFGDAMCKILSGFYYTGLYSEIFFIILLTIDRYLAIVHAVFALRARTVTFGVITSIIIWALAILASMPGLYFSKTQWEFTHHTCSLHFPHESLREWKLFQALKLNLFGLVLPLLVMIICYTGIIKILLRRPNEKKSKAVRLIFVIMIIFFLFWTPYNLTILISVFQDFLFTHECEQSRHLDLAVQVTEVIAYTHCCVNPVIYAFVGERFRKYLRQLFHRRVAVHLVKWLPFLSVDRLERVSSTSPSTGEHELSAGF

SMILES = O=c1nc(SCc2ccc(C(F)(F)F)cc2)nc(SCc2csc3ccc(Cl)cc23)[nH]1; target = DNA topoisomerase 2-alpha (TOP2A, Homo sapiens, UniProt P11388); test = DNA relaxation; conditions = 1.95 µM, replicate 2; endpoint = relaxed DNA; result = 95.9%
SMILES = NCCCC(=O)O; target = Sodium- and chloride-dependent taurine transporter (SLC6A6, Homo sapiens, UniProt P31641, L306A); test = binding, microscale thermophoresis; conditions = 62.5 µM, room temperature, added: 50 nM labelled protein; scale = higher = more binding; endpoint = normalised MST signal; result = 0.208
SMILES = CC(=O)C1=C(O)C(=O)N(c2ccc(Br)cc2F)C1C1CCCCC1 (stereo not shown); target = C-C chemokine receptor type 1 (CCR1, Homo sapiens, UniProt P32246); test = inverse agonist; system = U2OS; conditions = no agonist; endpoint = Hill slope; result = -0.4 ± 0.06
SMILES = O=C(COP(=O)(O)O)[C@@H](O)[C@H](O)[C@H](O)COP(=O)(O)O; target = Fructose-1,6-bisphosphatase 1 (Mus musculus, UniProt Q9QXD6); test = thermal shift; conditions = 0.1 mM, wild type, added: AMP 0.2 mM; endpoint = melting temperature; result = 70.3 ± 0.6 °C
SMILES = CCCCC[C@H](O)/C=C/[C@H]1C(=O)C[C@H](O)[C@@H]1C/C=C\CCCC(=O)O; target = Prostaglandin D2 receptor (PTGDR, Homo sapiens, UniProt Q13258, M112A); test = agonist, ONE-GO BRET; conditions = 1.25 µM (1.25 µM); scale = baseline: wild-type receptor maximum; endpoint = Gs protein activation; result = 101%
SMILES = COc1cc(Nc2ncc3c(n2)-c2ccc(Cl)cc2C(c2c(F)cccc2OC)=NC3)ccc1C(=O)O; target = ROS1; test = kinase activity; conditions = 1 µM; endpoint = remaining activity; result = 20%
SMILES = Cc1cccc(N2CC(C(=O)O)CC2=O)c1 (stereo not shown); target = DNA mismatch repair protein Msh6 (Homo sapiens, UniProt P52701); test = binding, affinity selection mass spectrometry; scale = baseline: other proteins in batch; endpoint = log fold enrichment; result = -0.0471
SMILES = CC1(F)CN(C(=O)Cn2c(=O)c(C(=O)NCc3ccc(Cl)cc3)cc3nc(N4CCOC4=O)cnc32)C1; target = DNA polymerase catalytic subunit (Human cytomegalovirus, UniProt P08546); test = enzyme activity, inhibitor; endpoint = Hill slope; result = 0.78
SMILES = O=C(Nc1ccc2[nH]nc(-c3ccncc3)c2c1)[C@@H]1CCN(CC(=O)N2CCN(c3ccc(-c4ncccn4)cc3)CC2)C1; target = Mitogen-activated protein kinase 1 (MAPK1, Homo sapiens, UniProt P28482); test = kinase activity, Kinase-Glo; conditions = concentration not given; endpoint = normalized luminescence; result = 1.25
SMILES = CCCCCCCCC(CO)CCCCCC (stereo not shown); target = uncharacterized protein (Spodoptera exigua, UniProt F1CEY0); test = binding, 1-NPN competitive displacement; conditions = protein 2.0 µM, added: 1-NPN 20 µM; scale = baseline: 1-NPN without compound, lower = stronger binding; endpoint = relative fluorescence; result = 71%
SMILES = N[C@H](CNC(=O)c1cc(Br)c(-c2ccccc2Br)s1)C(=O)O; target = Glutamate receptor ionotropic, NMDA 1, with GluN2C (Grin1, Rattus norvegicus, UniProt P35439); conditions = added: glutamate 300 µM; endpoint = Hill slope; result = 1.18
SMILES = Cc1ccc(S(=O)(=O)NNc2ccc([N+](=O)[O-])cc2[N+](=O)[O-])cc1; target = Prostaglandin G/H synthase 2 (PTGS2, Homo sapiens, UniProt P35354); scale = baseline: COX-1 IC50 over COX-2 IC50; endpoint = selectivity ratio; result = 41
SMILES = O=[N+]([O-])c1cc(C(F)(F)F)ccc1NCc1ccco1; target = Endothelial PAS domain-containing protein 1, PAS-B domain (EPAS1, Homo sapiens, UniProt Q99814, N288A); test = ZZ-exchange NMR; conditions = 25 °C; endpoint = koff; result = 3.37 ± 0.17 s⁻¹
SMILES = N[C@@H](Cc1c[nH]c2ccccc12)C(=O)O; target = Transcription attenuation protein MtrB (mtrB, Geobacillus stearothermophilus, UniProt Q9X6J6); test = isothermal titration calorimetry; conditions = 25 °C, one-site model; endpoint = ΔH; result = -11.47 ± 0.05 kcal/mol
SMILES = C=CC(=O)N1CCC(COCC(=O)N2CCN(c3nc(-c4cnc(N)nc4C(F)F)nc(N4CCOC[C@@H]4C)n3)CC2)CC1; target = Cyclin-dependent kinase 11B (CDK11B, Homo sapiens, UniProt P21127); test = KINOMEscan; conditions = 1 µM; endpoint = remaining binding; result = 100%
SMILES = Nc1ccc(C(=O)O)cc1; target = BEST1, with wild-type BEST1 (Homo sapiens, UniProt O76090, D302A); test = ion current, whole-cell patch clamp; system = HEK293 co-expressing mutant and wild-type; conditions = concentration not given, voltage 0 mV; endpoint = current density; result = -0.28 pA/pF and 0.02 pA/pF and -0.15 pA/pF and -0.03 pA/pF and -0.07 pA/pF

Excerpt of the above:
SMILES = O=[N+]([O-])c1cc(C(F)(F)F)ccc1NCc1ccco1; target = Endothelial PAS domain-containing protein 1, PAS-B domain (EPAS1, Homo sapiens, UniProt Q99814, N288A); test = ZZ-exchange NMR; conditions = 25 °C; endpoint = koff; result = 3.37 ± 0.17 s⁻¹
